Experimental data pooled from the literature.
Compare with care: the assays were run in different laboratories.

`c1ccc(CCNC2CCCc3c2[nH]c2ccc(C4CCCCC4)cc32)cc1` (stereo not drawn) has an MIC of 1 µg/mL (Moraxella catarrhalis; microbial growth, broth dilution; ATCC43617).
With `CCCCCCCCCCCCCC[S+]([O-])CC1OC(OC2C(N)CC(N)C(OC3OC(CN)C(O)CC3N)C2O)C(O)C(N)C1O` (mixture of isomers) the MIC was 37.5 µg/mL (Enterococcus; vancomycin-resistant).
For `COc1ccc(C2=[N+]([O-])c3ccccc3N3CCN=C23)cc1`, the MIC was ≤ 0.06 µg/mL (Porphyromonas asaccharolytica).
The MIC of `CCCCCCCCC/C=C\CCCc1cc(=O)c2ccccc2n1C` is reported as 10 µg/mL (Mycolicibacterium smegmatis; spot culture on 7H10 agar; mc2 155; 3 days, 37 °C).
`CC[C@H](C)[C@@H]1NC(=O)CNC(=O)[C@H](CCCCN)NC(=O)[C@H](C)NC(=O)[C@H](CCC(=O)O)NC(=O)[C@H](Cc2ccccc2)NC(=O)[C@H](CO)NC(=O)[C@H](CC(C)C)NC(=O)[C@H](C(C)C)NC(=O)[C@H](CC(=O)O)NC(=O)[C@@H](NC(=O)[C@@H](NC(=O)[C@@H](N)C(C)C)[C@@H](C)O)CSSC[C@@H]2NC(=O)[C@H](CO)NC(=O)CNC(=O)CNC(=O)[C@H](CCCCN)NC(=O)[C@H](CCCCN)NC(=O)[C@H](CCCNC(=N)N)NC(=O)[C@H](CC(C)C)NC(=O)[C@H](C)NC(=O)[C@H]([C@@H](C)CC)NC(=O)[C@H](CSSC[C@@H](C(=O)N[C@@H](CCCNC(=N)N)C(=O)N[C@@H](CC(N)=O)C(=O)O)NC(=O)[C@H](C(C)C)NC(=O)[C@H](C)NC(=O)[C@H](C(C)C)NC(=O)CNC(=O)[C@H](CC(N)=O)NC(=O)[C@H](CCC(N)=O)NC2=O)NC(=O)[C@H](Cc2c[nH]cn2)NC(=O)[C@H](CC(C)C)NC(=O)[C@H](C)NC(=O)[C@H](C)NC(=O)[C@H](C)NC(=O)[C@H](CO)NC(=O)[C@H](Cc2c[nH]cn2)NC(=O)[C@H](CC(N)=O)NC(=O)[C@H](C(C)C)NC(=O)[C@H](C)NC1=O` gave an MIC of > 100 µM (Gram-negative and Gram-positive bacteria; highest tested 100 µM).
For `COc1ccc(C2=[N+]([O-])c3ccccc3N3CCCN=C23)cc1`, the MIC was 2 µg/mL (Bacteroides fragilis; microbial growth; ATCC25285).
For `OB(O)c1cnn(-c2cc(Cl)ncn2)c1`, the MIC was 4 µg/mL (Klebsiella aerogenes; bacterial growth; AmpC-overproducing clinical isolate; cefotaxime alone).
`CCCCc1ccc(-c2nc(C)c(C(C)=NNC(=N)N)s2)cc1` gave an MIC of 2.6 µg/mL (Staphylococcus aureus; NRS107 MRSA).
For `CC(=O)OC1C(C)C(OC2CC3OCOC3C(C)O2)C=COC2(C)Oc3c(C)c(O)c4c(c3C2=O)C(=O)C=C(NC(=O)C(C)=CC=CC(C(C)OC(=O)C(C)(C)CC(=O)O)C(O)C(C)C(O)C1C)C4=O` (stereo not drawn), the MIC was 64 to 128 µg/mL (Enterococcus).
With `O=C(NCc1nc(-c2ccc(Br)cc2)c[nH]1)Nc1ncc(Sc2ccccn2)s1` the MIC was > 128 µM (Bacteroides fragilis; broth microdilution; ATCC 25285; added: verapamil 50 µg/mL).
The MIC of `CC[C@H](C)[C@H](NC(=O)[C@@H](NC(=O)CN)C(C)C)C(=O)N[C@@H](Cc1ccccc1)C(=O)N[C@@H](CC(N)=O)C(=O)N[C@@H](C)C(=O)N[C@@H](CC(C)C)C(=O)N[C@@H](CCCCN)C(=O)NCC(=O)N[C@H](C(=O)N[C@@H](C)C(=O)N[C@@H](CCCCN)C(=O)N[C@H](C(=O)N[C@H](C(=O)N[C@@H](C)C(=O)N[C@@H](C)C(=O)N[C@@H](CCC(N)=O)C(=O)N[C@@H](CC(C)C)C(=O)N[C@@H](CC(C)C)C(=O)N[C@@H](CCCCN)C(=O)N[C@@H](CCCCN)C(=O)N[C@@H](C)C(=O)N[C@@H](CCCNC(=N)N)C(=O)N[C@H]1CSSC[C@@H](C(=O)O)NC(=O)[C@H](CO)NC(=O)[C@H](CCCCN)NC(=O)[C@H](CC(=O)O)NC(=O)[C@H](CC(C)C)NC(=O)[C@H](CCCCN)NC1=O)C(C)C)[C@@H](C)O)C(C)C` is reported as 2 µM (Staphylococcus aureus; MRSA NCTC 12493, Mueller-Hinton broth; added: FeCl3 4 mM).
`CN[C@@H]1[C@H](O)[C@H](NC)[C@H]2O[C@]3(O)[C@H](O[C@@H]2[C@H]1O)O[C@H](C)C[C@@]3(O)CNCc1ccc(F)cc1` gave an MIC of 3 µg/mL (Moraxella catarrhalis; ATCC 25238).
With `CC1C(=NNC(=O)c2ccncc2)C(C)C(c2ccc(Cl)cc2)OC1c1ccc(Cl)cc1` (stereo not drawn) the MIC was 25 µg/mL (Aspergillus niger; microbial growth).
`COc1ccc(C2=[N+]([O-])c3ccccc3N3CC(C)(C)CN=C23)cc1` has an MIC of 0.25 µg/mL (Porphyromonas asaccharolytica).
The MIC of `CC1C(=NOCc2cc(-c3ccc(Cl)cc3)no2)C(C)C(c2ccc(Br)cc2)OC1c1ccc(Br)cc1` (stereo not drawn) is reported as 50 µg/mL (Aspergillus niger; microbial growth).
`CC[C@H](C)[C@H](NC(=O)[C@H](CCCCN)NC(=O)[C@H](CCCCN)NC(=O)[C@H](Cc1ccccc1)NC(=O)[C@H](Cc1ccccc1)NC(=O)[C@H](CCCCN)NC(=O)[C@H](CCCCN)NC(=O)[C@H](Cc1ccccc1)NC(=O)[C@H](CCCNC(=N)N)NC(=O)[C@@H](N)CCCCN)C(=O)N[C@@H](CCCCN)C(=O)N[C@@H](CCCCN)C(=O)N[C@@H](CO)C(=O)N[C@H](C(=O)N[C@@H](CCCCN)C(=O)N[C@@H](CCCCN)C(=O)N[C@@H](CCCNC(=N)N)C(=O)N[C@H](C(=O)N[C@@H](CCCCN)C(=O)N[C@@H](CCCCN)C(=O)N[C@@H](CC(C)C)C(=O)N[C@@H](Cc1ccccc1)C(=O)N[C@@H](CCCCN)C(=O)N[C@@H](CCCCN)C(=O)N1CCC[C@H]1C(=O)N[C@@H](CCCNC(=N)N)C(=O)N[C@H](C(=O)N[C@H](C(=O)N1CCC[C@H]1C(=O)N[C@H](C(=O)N[C@@H](CO)C(=O)N[C@H](C(=O)N1CCC[C@H]1C(=O)N[C@@H](Cc1ccccc1)C(=O)O)[C@@H](C)CC)[C@@H](C)CC)[C@@H](C)CC)C(C)C)C(C)C)C(C)C` has an MIC of 8 to 32 µg/mL (gram-negative bacteria; agar dilution; clinical isolates; summary range).
The MIC of `O=[N+]([O-])c1ccc(C2=[N+]([O-])c3ccccc3N3CCCN=C23)cc1` is reported as ≤ 0.06 µg/mL (Bacteroides fragilis; microbial growth; ATCC25285).
`CC[C@H](C)[C@@H]1NC(=O)CNC(=O)[C@H](CCCCN)NC(=O)[C@H](C)NC(=O)[C@H](CCC(=O)O)NC(=O)[C@H](Cc2ccccc2)NC(=O)[C@H](CO)NC(=O)[C@H](CC(C)C)NC(=O)[C@H](C(C)C)NC(=O)[C@H](CC(=O)O)NC(=O)[C@@H](NC(=O)[C@@H](NC(=O)[C@@H](N)C(C)C)[C@@H](C)O)CSSC[C@@H]2NC(=O)[C@H](CO)NC(=O)CNC(=O)CNC(=O)[C@H](CCCCN)NC(=O)[C@H](CCCCN)NC(=O)[C@H](CCCNC(=N)N)NC(=O)[C@H](CC(C)C)NC(=O)[C@H](C)NC(=O)[C@H]([C@@H](C)CC)NC(=O)[C@H](C)NC(=O)[C@H](Cc3c[nH]cn3)NC(=O)[C@H](CC(C)C)NC(=O)[C@H](C)NC(=O)[C@H](CSSC[C@@H](C(=O)N[C@H](C(=O)N[C@@H](C)C(=O)N[C@@H](CCCNC(=N)N)C(=O)N[C@@H](CC(N)=O)C(=O)O)C(C)C)NC(=O)[C@H](C(C)C)NC(=O)CNC(=O)[C@H](CC(N)=O)NC(=O)[C@H](CCC(N)=O)NC2=O)NC(=O)[C@H](C)NC(=O)[C@H](CO)NC(=O)[C@H](Cc2c[nH]cn2)NC(=O)[C@H](CC(N)=O)NC(=O)[C@H](C(C)C)NC(=O)[C@H](C)NC1=O` has an MIC of 12.5 µM (Candida parapsilosis; broth microdilution; ATCC 22019; 28 °C).
With `CO[C@H]1/C=C/O[C@@]2(C)Oc3c(C)c(O)c4c(c3C2=O)C2=NC3(CCN(CC(C)C)CC3)NC2=C(NC(=O)/C(C)=C\C=C\[C@H](C)[C@H](O)[C@@H](C)[C@@H](O)[C@@H](C)[C@H](OC(C)=O)[C@@H]1C)C4=O` the MIC was 0.04 µM (Mycobacteroides abscessus; ATCC 19977 arr knockout).
`[O-][N+]1=C(Cc2ccccc2)C2=NCCCN2c2ccccc21` gave an MIC of 2 µg/mL (Porphyromonas asaccharolytica).
`CC(C)C[C@H](NC(=O)[C@H](CCCNC(=N)N)NC(=O)[C@H](CCC(N)=O)NC(=O)[C@H](Cc1c[nH]cn1)NC(=O)[C@@H](NC(=O)[C@H](CCCCN)NC(=O)[C@H](CC(C)C)NC(=O)[C@H](CCC(=O)O)NC(=O)[C@H](CO)NC(=O)[C@H](CCCNC(=N)N)NC(=O)[C@@H](N)CO)C(C)C)C(=O)N[C@@H](Cc1ccccc1)C(N)=O` gave an MIC of > 400 µg/mL (Candida parapsilosis; broth microdilution; RPMI MOPS-buffered).
`C[N+]1=C2C(c3ccc([N+](=O)[O-])cc3)=[N+]([O-])c3ccccc3N2CCC1` has an MIC of 1 µg/mL (Bacteroides fragilis; microbial growth; ATCC25285).
`CC[C@H](C)[C@@H]1NC(=O)[C@H](CC(C)C)NC(=O)[C@@H](NC(=O)[C@H](CO)NC(=O)[C@H](CCCNC(=N)N)NC(=O)[C@@H](N)CO)CSSC[C@@H](C(=O)N[C@@H](CCC(N)=O)C(=O)N[C@@H](CCCNC(=N)N)C(=O)N[C@@H](CC(C)C)C(=O)N[C@@H](Cc2ccccc2)C(N)=O)NC(=O)[C@H](C(C)C)NC1=O` gave an MIC of 14 µg/mL (Candida parapsilosis; broth microdilution; ATCC 22019).
The MIC of `C[N+]1=C2C(c3ccc(Cl)cc3)=[N+]([O-])c3ccccc3N2CCC1` is reported as 4 µg/mL (Bacteroides fragilis; microbial growth; ATCC25285).
`CC[C@H](C)[C@H](NC(=O)[C@H](CC(C)C)NC(=O)[C@H](CC(=O)O)NC(=O)[C@H](CO)NC(=O)[C@H](CCCNC(=N)N)NC(=O)[C@@H](N)CO)C(=O)N[C@H](C(=O)N[C@@H](Cc1c[nH]cn1)C(=O)N[C@@H](CCC(N)=O)C(=O)N[C@@H](CCCNC(=N)N)C(=O)N[C@@H](CC(C)C)C(=O)N[C@@H](Cc1ccccc1)C(N)=O)C(C)C` gave an MIC of > 400 µg/mL (Candida parapsilosis; broth microdilution; RPMI MOPS-buffered).
`C[N+]1=C2C(c3ccccc3)=[N+]([O-])c3ccccc3N2CCC1` has an MIC of 32 µg/mL (Finegoldia magna).
With `CC[C@H](C)[C@H](NC(=O)[C@@H]1CC(=O)N[C@@H](CO)C(=O)N[C@@H](CC(C)C)C(=O)NCC(=O)N[C@@H](CO)C(=O)N[C@@H](CO)C(=O)N2CCC[C@H]2C(=O)N[C@@H](Cc2ccc(O)cc2)C(=O)N[C@@H](CC(N)=O)C(=O)N1)C(=O)N[C@@H](CC(C)C)C(=O)NCC(=O)N[C@@H](Cc1ccc(O)cc1)C(=O)N1CCC[C@H]1C(=O)N[C@@H](C)C(=O)N[C@@H](CC(C)C)C(=O)N[C@H](C(=O)N[C@H](C(=O)N[C@H](C(=O)N[C@@H](Cc1ccc(O)cc1)C(=O)N1CCC[C@H]1C(=O)O)[C@@H](C)CC)C(C)C)[C@@H](C)CC` the MIC was > 128 µg/mL (Aspergillus niger).
